Published values collected from several papers.
Lines come from different studies, so protocols differ. Values joined by “and” are separate records of one study, mostly repeats; a detail may differ. ± gives the spread as reported. Converted amounts (≈) assume the structure as drawn.
UniProt Q12913, sequence (whole entry, looked up): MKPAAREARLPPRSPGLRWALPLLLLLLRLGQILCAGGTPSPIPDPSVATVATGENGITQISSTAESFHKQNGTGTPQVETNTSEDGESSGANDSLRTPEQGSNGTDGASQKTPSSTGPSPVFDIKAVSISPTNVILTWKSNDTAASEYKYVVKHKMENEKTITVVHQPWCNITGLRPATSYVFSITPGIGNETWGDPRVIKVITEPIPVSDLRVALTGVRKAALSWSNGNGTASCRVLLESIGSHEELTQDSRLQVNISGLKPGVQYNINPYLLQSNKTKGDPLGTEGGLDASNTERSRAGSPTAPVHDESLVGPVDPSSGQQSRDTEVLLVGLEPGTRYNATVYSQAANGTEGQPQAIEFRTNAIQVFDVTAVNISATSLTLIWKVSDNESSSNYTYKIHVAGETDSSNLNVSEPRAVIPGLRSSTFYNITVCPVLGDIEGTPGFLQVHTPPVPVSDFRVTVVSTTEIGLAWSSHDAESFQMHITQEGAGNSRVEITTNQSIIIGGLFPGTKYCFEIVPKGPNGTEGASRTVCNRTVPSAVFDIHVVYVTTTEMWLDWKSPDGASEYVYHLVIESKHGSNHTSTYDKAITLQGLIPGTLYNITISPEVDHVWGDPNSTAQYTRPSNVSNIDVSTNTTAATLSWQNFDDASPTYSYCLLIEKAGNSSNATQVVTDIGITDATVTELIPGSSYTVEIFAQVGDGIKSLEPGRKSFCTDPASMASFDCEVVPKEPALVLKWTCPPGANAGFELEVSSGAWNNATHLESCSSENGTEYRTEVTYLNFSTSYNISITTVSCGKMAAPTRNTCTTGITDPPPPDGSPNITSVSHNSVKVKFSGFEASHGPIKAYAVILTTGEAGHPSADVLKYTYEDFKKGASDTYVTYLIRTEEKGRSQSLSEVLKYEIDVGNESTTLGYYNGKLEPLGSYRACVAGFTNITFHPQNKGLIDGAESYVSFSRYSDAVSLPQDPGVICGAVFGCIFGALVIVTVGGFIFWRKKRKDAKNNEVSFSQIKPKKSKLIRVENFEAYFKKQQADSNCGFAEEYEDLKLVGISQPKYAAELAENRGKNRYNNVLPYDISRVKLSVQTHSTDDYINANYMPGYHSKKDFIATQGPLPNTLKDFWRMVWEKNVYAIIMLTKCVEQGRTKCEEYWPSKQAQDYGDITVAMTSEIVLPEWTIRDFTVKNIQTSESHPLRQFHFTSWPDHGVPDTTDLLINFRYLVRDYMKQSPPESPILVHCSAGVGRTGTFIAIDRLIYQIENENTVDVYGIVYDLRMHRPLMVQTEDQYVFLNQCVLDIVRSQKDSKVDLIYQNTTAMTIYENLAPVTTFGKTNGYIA
UniProt Q969V1, sequence (whole entry, looked up): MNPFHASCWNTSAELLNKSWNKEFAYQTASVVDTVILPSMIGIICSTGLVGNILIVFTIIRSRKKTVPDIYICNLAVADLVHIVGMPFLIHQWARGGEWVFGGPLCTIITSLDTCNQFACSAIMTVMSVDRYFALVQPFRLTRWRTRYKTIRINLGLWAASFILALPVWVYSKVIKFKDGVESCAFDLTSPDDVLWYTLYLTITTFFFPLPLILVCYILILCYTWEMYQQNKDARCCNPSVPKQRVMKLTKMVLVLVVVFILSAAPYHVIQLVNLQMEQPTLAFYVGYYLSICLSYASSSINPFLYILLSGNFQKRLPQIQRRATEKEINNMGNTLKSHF
UniProt P29144, sequence (whole entry, looked up): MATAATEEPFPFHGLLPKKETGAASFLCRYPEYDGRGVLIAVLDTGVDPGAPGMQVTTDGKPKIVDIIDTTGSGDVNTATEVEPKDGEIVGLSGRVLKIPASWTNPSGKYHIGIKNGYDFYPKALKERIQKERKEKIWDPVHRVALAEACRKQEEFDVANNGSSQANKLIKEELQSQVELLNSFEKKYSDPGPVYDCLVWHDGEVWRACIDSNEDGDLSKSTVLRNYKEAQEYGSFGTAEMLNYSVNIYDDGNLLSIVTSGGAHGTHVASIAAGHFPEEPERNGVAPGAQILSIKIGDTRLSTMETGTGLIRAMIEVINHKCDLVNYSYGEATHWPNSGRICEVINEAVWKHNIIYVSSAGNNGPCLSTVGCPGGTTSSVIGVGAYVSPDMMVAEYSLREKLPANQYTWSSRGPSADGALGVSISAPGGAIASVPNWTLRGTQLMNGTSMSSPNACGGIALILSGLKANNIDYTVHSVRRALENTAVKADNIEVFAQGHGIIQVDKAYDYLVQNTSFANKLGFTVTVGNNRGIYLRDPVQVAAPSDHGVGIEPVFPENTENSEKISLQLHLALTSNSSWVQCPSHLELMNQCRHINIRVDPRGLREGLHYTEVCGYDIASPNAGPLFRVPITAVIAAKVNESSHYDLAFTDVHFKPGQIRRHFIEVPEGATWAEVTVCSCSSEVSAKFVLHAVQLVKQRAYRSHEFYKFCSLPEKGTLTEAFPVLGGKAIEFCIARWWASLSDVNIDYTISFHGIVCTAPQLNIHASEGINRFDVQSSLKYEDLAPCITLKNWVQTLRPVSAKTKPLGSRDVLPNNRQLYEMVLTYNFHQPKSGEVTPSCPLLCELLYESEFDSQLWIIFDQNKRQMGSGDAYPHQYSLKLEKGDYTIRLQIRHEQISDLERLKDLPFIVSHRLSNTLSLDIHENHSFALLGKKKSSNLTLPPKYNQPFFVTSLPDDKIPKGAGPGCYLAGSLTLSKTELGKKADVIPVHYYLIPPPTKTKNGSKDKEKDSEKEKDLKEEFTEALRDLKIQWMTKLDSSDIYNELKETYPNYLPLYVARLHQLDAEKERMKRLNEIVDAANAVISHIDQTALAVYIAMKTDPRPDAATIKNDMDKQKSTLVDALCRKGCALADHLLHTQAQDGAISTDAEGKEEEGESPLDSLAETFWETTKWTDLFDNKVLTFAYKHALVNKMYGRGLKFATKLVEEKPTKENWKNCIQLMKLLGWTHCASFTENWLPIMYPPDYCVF
UniProt Q99623, sequence (whole entry, looked up): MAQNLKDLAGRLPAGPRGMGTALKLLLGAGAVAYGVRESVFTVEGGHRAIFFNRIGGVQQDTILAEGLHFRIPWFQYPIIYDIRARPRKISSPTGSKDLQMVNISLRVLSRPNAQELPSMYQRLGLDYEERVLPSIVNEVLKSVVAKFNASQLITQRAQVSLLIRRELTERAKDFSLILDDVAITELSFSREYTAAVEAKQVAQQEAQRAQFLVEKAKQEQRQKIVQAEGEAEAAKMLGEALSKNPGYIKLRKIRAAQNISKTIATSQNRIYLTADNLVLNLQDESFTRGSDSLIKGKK
UniProt P51956, sequence (whole entry, looked up): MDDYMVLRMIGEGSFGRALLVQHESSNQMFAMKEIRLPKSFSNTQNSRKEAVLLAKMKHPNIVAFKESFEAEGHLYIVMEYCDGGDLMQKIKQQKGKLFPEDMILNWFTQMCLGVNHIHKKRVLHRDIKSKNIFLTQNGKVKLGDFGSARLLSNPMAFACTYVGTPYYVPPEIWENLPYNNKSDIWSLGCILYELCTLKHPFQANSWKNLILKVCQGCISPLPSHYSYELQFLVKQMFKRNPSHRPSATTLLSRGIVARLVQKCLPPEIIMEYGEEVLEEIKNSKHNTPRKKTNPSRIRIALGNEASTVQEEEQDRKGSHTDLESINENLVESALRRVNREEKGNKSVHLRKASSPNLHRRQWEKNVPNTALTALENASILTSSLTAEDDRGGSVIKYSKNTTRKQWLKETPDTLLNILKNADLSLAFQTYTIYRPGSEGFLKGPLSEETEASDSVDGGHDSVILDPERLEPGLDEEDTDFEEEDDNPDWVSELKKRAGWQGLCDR

| Compound | tested on | assay | test system | conditions | scale | measurement | result |
| --- | --- | --- | --- | --- | --- | --- | --- |
| COc1ccc(N2C(=O)N(c3c(C)cccc3Cl)Cc3cnc(Nc4ccc(C5CCN(C)CC5)cc4OC)nc32)nc1 | Serine/threonine-protein kinase Nek3 (NEK3, Homo sapiens, UniProt P51956) | kinase activity | – | 0.5 µM | – | inhibition | 3.69% |
| C[C@H]1O[C@@H](O[C@H]2CC[C@@]3(C)[C@@H](CC[C@]4(C)[C@@H]3C=C[C@]35OC[C@@]6(CCC(C)(C)C[C@H]63)[C@@H](O)C[C@]54C)[C@]2(C)CO)[C@H](O)[C@@H](O[C@@H]2O[C@H](CO)[C@@H](O)[C@H](O)[C@H]2O)[C@H]1O | – | – | mouse, chronic-plus-binge ethanol, hepatic SIRT1 knockdown, liver | dose not given, high dose | – | hepatic total cholesterol | 0.25 mmol/g protein and 0.168 mmol/g protein and 0.204 mmol/g protein and 0.107 mmol/g protein and 0.246 mmol/g protein and 0.238 mmol/g protein |
| N.N.[Cl][Pt][Cl] | – | – | SAS xenograft, KSN/Slc nude mice | dose not given, day 0, group mean | – | tumour volume | 67.6 mm3 |
| CCNCCc1c[nH]c2cccc(O)c12.CCNCCc1c[nH]c2cccc(O)c12.O=C(O)CCC(=O)O | – | – | C57BL/6J mice | subcutaneous, 10 mg/kg | – | head twitch response | 31.2 ± 4.5 count/30 min |
| CC[C@H](C)[C@@H]1NC(=O)[C@@H]2CCCN2C(=O)[C@H](CC(C)C)NC(=O)[C@H](CC(C)C)NC(=O)CNC(=O)[C@@H](NC(=O)[C@@H](NC(=O)[C@H](CC(=O)O)NC(=O)CNC(=O)[C@@H](NC(=O)[C@H](C)NC(=O)CNC(=O)[C@H](CCCCN)NC(=O)[C@H](CC(C)C)NC(=O)[C@H](CC(C)C)NC(=O)[C@H](CCCCN)NC(=O)CNC(=O)[C@@H](NC(=O)[C@@H](N)CC(C)C)C(C)C)C(C)C)C(C)C)CSSC[C@@H](C(=O)O)NC1=O | – | RNA-seq, refers to: Sik1 | mouse, traumatic brain injury model, frontal cortex and hippocampus | dose not given | baseline: TBI alone | log2 fold change | -1.52 |
| COc1cccc(C(=O)NN(C(=O)c2cc(C)cc(C)c2)C(C)(C)C)c1C | Anopheles funestus | – | FUMOZ, resistant | tarsal contact, dose not given, 24 h post blood meal, added: RME | baseline: control | lifespan | decreased |
| COc1cc(CCC[P+](c2ccccc2)(c2ccccc2)c2ccccc2)c(OC)c2c1OCO2.[I-] | HCC 2998 | SRB | – | – | – | LC50 | -4.4 log M |
| C=CCNCCc1c[nH]c2cccc(O)c12.C=CCNCCc1c[nH]c2cccc(O)c12.O=C(O)/C=C/C(=O)O | – | – | C57BL/6J mice | subcutaneous, 30 mg/kg | – | head twitch count | 31 ± 6.8 |
| O=C(c1ccc(Cl)cc1)N1CCN2C(=O)N(OC(=O)N3CCOc4ccccc43)C(=O)C2C1 (stereo not shown) | Tripeptidyl-peptidase 2 (Homo sapiens, UniProt P29144) | enzyme activity, inhibitor, MS-based ABPP | SW-620 in situ | 10 µM, 2 h, 37 °C | baseline: compound over DMSO, lower = stronger inhibition | median ratio | 1 |
| CCCNCCc1c[nH]c2cccc(O)c12.CCCNCCc1c[nH]c2cccc(O)c12.O=C(O)/C=C/C(=O)O | – | – | C57BL/6J mice | subcutaneous, 30 mg/kg | – | head twitch count | 24.2 ± 3.3 |
| C=CCN1CC[C@]23c4c5ccc(O)c4O[C@H]2C(=O)CC[C@@]3(O)[C@H]1C5 | – | antinociception, hot plate | male ICR-CD1 mice | subcutaneous, 5 mg/kg, 15 min | – | maximum possible effect | -9.64% and 0.812% and 3.46% and 4.7% and -10.1% and 1.43% |
| Nc1nc2c(ncn2[C@@H]2O[C@@H]3COP(=O)(O)O[C@H]4[C@@H](O)[C@H](n5cnc6c(N)ncnc65)O[C@@H]4COP(=O)(O)O[C@@H]2[C@@H]3O)c(=O)[nH]1 | STING (human) | Blue-Native PAGE | HEK293T expressing STING | 100 µM | – | persistence of STING oligomerization | ≥ 30 min |
| CCCCNCCc1c[nH]c2cccc(O)c12.O=C(O)/C=C/C(=O)O | – | – | C57BL/6J mice | subcutaneous, 0.03 mg/kg, 30 min | – | distance travelled | 2450 ± 320 cm |
| COc1cc2c(Oc3ccc4[nH]c(C)cc4c3F)ccnc2cc1OCC1(N)CC1 | – | – | paediatric recurrent refractory sarcoma | 8 mg/kg | – | grade 3 Myalgia | 0% |
| CN1CCN(c2cc(-c3ccncc3)c(-c3ccc4ccccc4c3)nn2)CC1 | Melanin-concentrating hormone receptor 2 (MCHR2, Homo sapiens, UniProt Q969V1) | antagonist, FLIPR | – | 10 µM | – | inhibition | 28.3% |
| CC(C)(C)NCCc1c[nH]c2cccc(O)c12.CC(C)(C)NCCc1c[nH]c2cccc(O)c12.O=C(O)/C=C/C(=O)O | – | – | C57BL/6J mice | subcutaneous, 1 mg/kg, 30 min | – | distance travelled | 2440 ± 313 cm |
| CCCCCCCCCCCC[N+](C)(C)CCOCC[N+](C)(C)CCCCCCCCCCCC.[Br-].[Br-] | influenza A virus A/PR/8/34 (H1N1) | – | – | concentration not given, co-treatment | – | HA titre reduction | 6 ± 1 log units |

| Compound | tested on | assay | test system | conditions | scale | measurement | result |
| --- | --- | --- | --- | --- | --- | --- | --- |
| COc1cc(Nc2ncc(F)c(Nc3ccc4c(n3)NC(=O)C(C)(C)O4)n2)cc(OC)c1OC | Receptor-type tyrosine-protein phosphatase eta (PTPRJ, Homo sapiens, UniProt Q12913) | – | – | DEP1 | – | IC50 | > 10 µM |
| C[C@H]1CN(c2n[nH]c3nc(N[C@H]4CC[C@H](NS(=O)(=O)CCC(F)(F)F)CC4)ncc23)CCO1 | Prohibitin-2 (PHB2, Homo sapiens, UniProt Q99623) | inhibitor, Kinobeads competition profiling | – | 0.16 µM | baseline: vehicle | relative abundance | 0.96 |
| CCC(CC)O[C@@H]1C=C(C(=O)O)C[C@H](N)[C@H]1NC(C)=O | influenza A virus A/PR/8/34 (H1N1) | – | – | concentration not given, post-treatment | – | protection | 71.7 ± 2.6% |
| CC[C@H](C)[C@H](NC(=O)[C@H](C)NC(=O)[C@H](CCCCN)NC(=O)[C@H](CC(C)C)NC(=O)[C@H](C)NC(=O)[C@@H](NC(=O)[C@H](Cc1c[nH]cn1)NC(=O)[C@H](CC(C)C)NC(=O)[C@@H](NC(=O)[C@@H](NC(=O)[C@H](CCCCN)NC(=O)[C@H](C)NC(=O)[C@H](C)NC(=O)[C@H](CO)NC(=O)[C@H](CCCCN)NC(=O)[C@H](Cc1ccccc1)NC(=O)[C@@H](NC(=O)[C@H](CCCCN)NC(=O)[C@H](CC(C)C)NC(=O)[C@H](Cc1ccccc1)NC(=O)[C@H](CO)NC(=O)[C@H](CCCCN)NC(=O)[C@H](Cc1c[nH]c2ccccc12)NC(=O)[C@H](CCCCN)NC(C)=O)[C@@H](C)O)[C@@H](C)O)C(C)C)[C@@H](C)O)C(=O)N[C@@H](CO)C(=O)N[C@@H](CO)C(N)=O | Klebsiella pneumoniae | – | ATCC 1705 | – | – | MBC range | 16 µg/mL (≈ 5.45 µM) |
| CC(C)NCCc1c[nH]c2cccc(O)c12.O=C(O)/C=C/C(=O)O | – | – | C57BL/6J mice | subcutaneous, 0.3 mg/kg, 30 min | – | distance travelled | 2220 ± 219 cm |
| CC(C)C[C@@H]1NC(=O)[C@H](CC(C)C)NC(=O)[C@H](Cc2c[nH]c3ccccc23)NC(=O)[C@H](CO)NC(=O)[C@H](Cc2c[nH]c3ccccc23)NC(=O)[C@@H]2CCCN2C(=O)[C@H](CC(C)C)NC(=O)[C@H](Cc2c[nH]cn2)NC(=O)[C@@H]2CCCN2C(=O)[C@H](CC(N)=O)NC(=O)[C@H](C)NC(=O)[C@H](Cc2ccc(O)cc2)NC(=O)[C@H](CS)NC(=O)[C@H](CCCCNC(=O)CN2CCN(CC(=O)O)CCN(CC(=O)O)CCN(CC(=O)O)CC2)NC1=O [lutetium-177 labelled] | – | – | BALB/c mice female 4T1 tumour, 4T1 tumour | intravenous, 3.7 MBq, 1 h, unblocked | – | tumour uptake | 6.97 ± 1.04 %ID |
| CS(=O)(=O)CCCn1c(Cn2c(=O)n(CC(F)(F)F)c3ccncc32)cc2cc(Cl)ccc21 | respiratory syncytial virus | RT-qPCR | hospitalized infants 1-24 months, nasal swab | oral, 1-9 mg/kg daily, day 3, all doses combined | baseline: baseline | LS mean viral load change | -1.95 log10 copies/mL |
| CCCCCCCCCCCCCCCCCC[N+](C)(C)CCCCCCCCCC[N+](C)(C)CCCCCCCCCCCCCCCCCC.[Br-].[Br-] | influenza A virus A/PR/8/34 (H1N1) | – | – | concentration not given, post-treatment | – | HA titre reduction | 3 log units |
| C[C@@H](O)[C@@H](CO)NC(=O)[C@@H](CCCNC(=N)N)NC(=O)[C@@H]1CCCN1C(=O)[C@@H]1CSSC[C@H](NC(=O)[C@H](Cc2ccccc2)NC(=O)CN2CCN(CC(=O)O)CCN(CC(=O)O)CCN(CC(=O)O)CC2)C(=O)N[C@@H](Cc2ccc(O)cc2)C(=O)N[C@@H](Cc2ccccc2)C(=O)N[C@@H](CCC(N)=O)C(=O)N[C@@H](CC(N)=O)C(=O)N1 [gallium-68 labelled] | – | – | Wistar rat, muscle | intravenous, 8 MBq, 30 min, group mean | – | tissue uptake | 0.73 %ID/g |
| [Ca+2] | Halyomorpha halys | inward current, inhibitor, electrophysiology | – | 1 mM, C-terminal deletion | – | inhibition | 7.62% |
| O=C(Cc1cccc([N+](=O)[O-])c1)N[C@H]1CCOC1=O | ExpR2 (Pectobacterium carotovorum) | cellulase activity, agonist | Pectobacterium carotovorum, single-ExpR2 strain | 200 µM, 4 h | baseline: OHHL | activation | 103% |
| CCCCCCCCCCCCCCCC[N+](C)(C)Cc1ccc(C[N+](C)(C)CCCCCCCCCCCCCCCC)cc1.[Br-].[Br-] | influenza A virus A/PR/8/34 (H1N1) | – | – | concentration not given, co-treatment | – | protection | 65.4 ± 1.9% |
| O=C(O)/C=C/C(=O)O.Oc1cccc2[nH]cc(CCNC3CCCCC3)c12 | – | – | C57BL/6J mice | subcutaneous, 0.3 mg/kg | – | head twitch count | 6.5 ± 1.4 |
| CC[C@H](C)[C@@H]1NC(=O)[C@H](CO)NC(=O)[C@@H]2CCCN2C(=O)[C@@H](NC(=O)CN)CSSC[C@@H]2NC(=O)CNC(=O)[C@H](C)NC(=O)[C@H](CC(C)C)NC(=O)[C@@H]3CSSC[C@@H](C(=O)NCC(=O)O)NC(=O)[C@H](Cc4ccccc4)NC(=O)CNC(=O)[C@H](CC(N)=O)NC(=O)[C@@H]4CCCN4C(=O)CNC(=O)[C@H](CSSC[C@H](NC(=O)[C@H](CCCNC(=N)N)NC(=O)[C@H](CCC(N)=O)NC(=O)[C@H](CCCNC(=N)N)NC(=O)[C@H](CCCCN)NC(=O)[C@H](C(C)C)NC(=O)[C@H](CO)NC(=O)[C@H](CC(N)=O)NC1=O)C(=O)N[C@@H](CCCCN)C(=O)N[C@@H](CCC(N)=O)C(=O)N[C@@H](CC(=O)O)C(=O)N[C@@H](CO)C(=O)N[C@@H](CC(=O)O)C(=O)N3)NC(=O)[C@H](C(C)C)NC2=O | HEK293, Wnt1-transfected | Wnt signalling | – | – | – | IC50 | > 100 µM |
| C[C@]1(CO)Cc2ncn(-c3ccc(C#N)c(Cl)c3)c2C(=O)O1 | – | – | human | 80 mg multiple doses, fasted | – | subjects with drug-related dizziness | 11.1% |
| CO[C@H]1C[C@@H]2CC[C@@H](C)[C@@](O)(O2)C(=O)C(=O)N2CCCC[C@H]2C(=O)O[C@H]([C@H](C)C[C@@H]2CC[C@@H](OC(=O)NCCOCCOCCOCCOCCOCCOCCOCCOCCC(=O)N3CCc4cc(Cn5nc(-c6ccc7oc(N)nc7c6)c6c(N)ncnc65)ccc4C3)[C@H](OC)C2)C[C@@H](O)[C@H](C)/C=C(\C)[C@@H](O)[C@@H](OC)C(=O)[C@H](C)C[C@H](C)/C=C/C=C/C=C/1C | – | – | patients with advanced solid tumours | intravenous, 16 mg weekly, grade 3 or higher | – | decreased appetite incidence | 0% |
| CC[C@H](C)[C@H](NC(=O)[C@H](Cc1ccccc1)NC(=O)[C@H](CCC(=O)O)NC(=O)[C@H](CCCNC(=N)N)NC(=O)[C@H](C)NC(=O)[C@H](C)NC(=O)[C@H](CCC(N)=O)NC(=O)[C@H](CCC(=O)O)NC(=O)[C@H](CCC(=O)O)NC(=O)[C@H](CC(C)C)NC(=O)[C@H](Cc1ccc(O)cc1)NC(=O)[C@H](CO)NC(=O)[C@H](CO)NC(=O)[C@@H](NC(=O)[C@H](CC(=O)O)NC(=O)[C@H](CO)NC(=O)[C@@H](NC(=O)[C@H](Cc1ccccc1)NC(=O)[C@@H](NC(=O)CNC(=O)[C@H](CCC(=O)O)NC(=O)[C@H](C)NC(=O)CCc1c[nH]cn1)[C@@H](C)O)[C@@H](C)O)C(C)C)C(=O)N[C@@H](C)C(=O)N[C@@H](Cc1c[nH]c2ccccc12)C(=O)N[C@@H](CC(C)C)C(=O)N[C@H](C(=O)N[C@@H](CCCNC(=N)N)C(=O)NCC(=O)N[C@@H](CCCNC(=N)N)C(=O)N[C@@H](CCCCNC(=O)COCCOCCNC(=O)COCCOCCNC(=O)CC[C@H](NC(=O)CCCCCCCCCCCCCCCCC(=O)O)C(=O)O)C(=O)NCC(=O)NCC(=O)N[C@@H](CO)C(=O)N[C@@H](CCCCNc1c(NCCCCCN(O)C(=O)CCC(=O)NCCCCCN(O)C(=O)CCC(=O)NCCCCCN(O)C(C)=O)c(=O)c1=O)C(=O)O)C(C)C [zirconium-89 labelled] | – | – | rat, blood | sc, 3 nmol/kg, 4 h, ex vivo | – | tissue uptake | 0.66 %ID/g |
